Measured values gathered from unrelated publications.
A part holds a random share of what one study measured.

Sample 1 — technique: protein binding microarray; molecule type: double-stranded DNA, one strand shown; medium: in vitro; tested at: not given; reference: not given; direction: higher = stronger binding
Target: Histone acetyltransferase KAT6A, winged helix 2, GST fusion (KAT6A, Homo sapiens, UniProt Q92794, residues 85-181)
Notes: 8-mer, flanks averaged, mean of 2 arrays, mostly near background
Target sequence (chain): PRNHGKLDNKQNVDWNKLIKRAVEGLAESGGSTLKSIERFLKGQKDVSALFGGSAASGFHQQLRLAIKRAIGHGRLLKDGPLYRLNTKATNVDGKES
`ACTTTAAT` gave an E-score of -0.121.
The E-score of `TCAAGGAA` is reported as -0.0381.
`GCGTACAA` has an E-score of -0.0101.
`TCGTATCA` has an E-score of -0.0129.
With `ACGACCGG` the E-score was -0.0815.
For `GCATTGGC`, the E-score was -0.0418.
For `TCATATCA`, the E-score was -0.103.
`CCAACCAG` has an E-score of -0.00658.
For `TGAGAAAA`, the E-score was -0.00434.
For `ATCATTGC`, the E-score was 0.00201.
`CATGTTAA` gave an E-score of -0.134.
With `TGATTAAA` the E-score was 0.0203.
With `GCCCATAA` the E-score was 0.00101.
The E-score of `CGAAGGAA` is reported as 0.116.
`TAGTCGCA` gave an E-score of -0.0314.
`TCTATCCA` has an E-score of -0.0411.
The E-score of `CGTAGTTA` is reported as -0.0543.
With `TCATGACA` the E-score was 0.00733.
The E-score of `GCCTGCCA` is reported as 0.0766.
`ATTGAGCG` gave an E-score of -0.129.
`ACTTTTCG` gave an E-score of -0.0781.
The E-score of `CATACAGC` is reported as -0.189.
With `CAACTCTA` the E-score was -0.127.
For `TCGACGCA`, the E-score was 0.0147.
`CGGAGTCC` has an E-score of 0.195.

Sample 2 — technique: protein-binding microarray; molecule type: double-stranded DNA, one strand shown; medium: in vitro; tested at: not given; direction: higher = stronger binding
Target: Transcriptional repressor CTCF (CTCF, Homo sapiens, UniProt P49711, residues 1-727, full length assumed)
Sequence of UniProt P49711 (whole entry, looked up): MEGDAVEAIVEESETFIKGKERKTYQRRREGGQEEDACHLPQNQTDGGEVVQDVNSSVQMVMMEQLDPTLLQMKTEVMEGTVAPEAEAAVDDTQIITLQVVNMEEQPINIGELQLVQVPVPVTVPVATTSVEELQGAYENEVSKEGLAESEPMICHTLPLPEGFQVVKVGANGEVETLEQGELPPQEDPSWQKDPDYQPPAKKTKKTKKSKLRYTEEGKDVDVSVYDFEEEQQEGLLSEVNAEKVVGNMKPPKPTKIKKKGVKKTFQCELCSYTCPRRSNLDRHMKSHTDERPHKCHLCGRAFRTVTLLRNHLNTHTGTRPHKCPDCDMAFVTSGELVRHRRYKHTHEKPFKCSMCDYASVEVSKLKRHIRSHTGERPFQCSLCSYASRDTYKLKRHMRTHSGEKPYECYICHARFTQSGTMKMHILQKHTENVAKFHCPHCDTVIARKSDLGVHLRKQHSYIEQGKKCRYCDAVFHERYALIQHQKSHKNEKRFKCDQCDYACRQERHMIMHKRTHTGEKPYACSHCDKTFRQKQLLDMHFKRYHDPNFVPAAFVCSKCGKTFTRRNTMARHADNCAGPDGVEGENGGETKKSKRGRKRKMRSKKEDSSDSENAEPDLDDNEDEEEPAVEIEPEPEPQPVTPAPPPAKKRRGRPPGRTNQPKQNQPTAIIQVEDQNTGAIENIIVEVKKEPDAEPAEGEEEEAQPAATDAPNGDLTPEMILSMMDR
Notes: k-mer, scored over probes, only values ≥0.25
For `ATGCGCGC`, the E-score was 0.369.
For `CATAAAAA`, the E-score was 0.278.
The E-score of `CCACCAGG` is reported as 0.405.
`ATTATTTA` gave an E-score of 0.275.
For `GATATGGA`, the E-score was 0.289.
With `AAACAATA` the E-score was 0.302.
For `AATATTGC`, the E-score was 0.265.
For `CCCCCTAC`, the E-score was 0.285.
The E-score of `AAATACAT` is reported as 0.301.
For `AGAAATAA`, the E-score was 0.26.
The E-score of `AAGATAAA` is reported as 0.29.
`TGTATAAA` has an E-score of 0.257.
The E-score of `AATACCTA` is reported as 0.278.
With `AACATACG` the E-score was 0.27.
The E-score of `AATACATA` is reported as 0.268.
With `ACAGAAAT` the E-score was 0.273.
`GTATGATA` has an E-score of 0.349.
`TAGGTGAA` gave an E-score of 0.325.
For `ATTGCATA`, the E-score was 0.31.
For `TAACAAAA`, the E-score was 0.296.
`ACTAATAC` has an E-score of 0.286.
`GGCGGGGA` has an E-score of 0.369.
`ATACCATA` gave an E-score of 0.329.
The E-score of `GCGCGTCA` is reported as 0.3.
`GTTGTACA` has an E-score of 0.283.

Sample 3 — technique: universal PBM; molecule type: double-stranded DNA, one strand shown; medium: in vitro; tested at: not given; direction: higher = stronger binding
Target: Sal-like protein 4, full length isoform B (SALL4, Homo sapiens, UniProt Q9UJQ4-2, residues 1-616)
Notes: 8-mer, flanks averaged, mean of replicates
Residues (chain): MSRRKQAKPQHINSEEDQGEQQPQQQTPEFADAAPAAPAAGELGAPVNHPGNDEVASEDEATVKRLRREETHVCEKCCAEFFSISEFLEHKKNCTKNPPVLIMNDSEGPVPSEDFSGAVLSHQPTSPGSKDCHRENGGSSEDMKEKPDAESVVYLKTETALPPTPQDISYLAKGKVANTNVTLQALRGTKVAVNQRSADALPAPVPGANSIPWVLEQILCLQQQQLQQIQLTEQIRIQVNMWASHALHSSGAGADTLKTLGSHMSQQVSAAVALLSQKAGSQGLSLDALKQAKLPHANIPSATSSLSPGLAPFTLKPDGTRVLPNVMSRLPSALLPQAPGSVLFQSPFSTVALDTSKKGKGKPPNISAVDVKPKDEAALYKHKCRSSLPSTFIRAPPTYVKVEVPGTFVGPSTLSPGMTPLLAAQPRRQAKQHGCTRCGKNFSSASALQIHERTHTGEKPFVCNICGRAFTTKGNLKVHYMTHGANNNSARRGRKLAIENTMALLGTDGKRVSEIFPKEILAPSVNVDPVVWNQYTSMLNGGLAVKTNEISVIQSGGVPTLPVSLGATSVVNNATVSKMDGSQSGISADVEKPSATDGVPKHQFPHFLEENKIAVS
With `CAACTACG` the E-score was 0.0797.
`CAGCGCCC` gave an E-score of -0.31.
For `AGCGGACA`, the E-score was -0.273.
For `CCGCTTGC`, the E-score was -0.221.
For `ACTGAACC`, the E-score was -0.148.
The E-score of `ATATGGAA` is reported as 0.339.
For `AAATTCGG`, the E-score was 0.0359.
For `CCCATCAC`, the E-score was -0.0553.
`ACTAAGAA` has an E-score of -0.0139.
`ACGCGTAC` gave an E-score of 0.0393.
The E-score of `ACCGATGA` is reported as 0.141.
`GGAGCCGA` has an E-score of -0.349.
`AACTGCGC` gave an E-score of -0.135.
The E-score of `CAAACGGC` is reported as -0.321.
`AGTATGAT` gave an E-score of 0.271.
`ACATGGAC` has an E-score of 0.0201.
For `AAGCCCGA`, the E-score was -0.142.
`CCAGACTC` gave an E-score of -0.169.
For `ACTACTAA`, the E-score was 0.183.
The E-score of `CAAAAGGG` is reported as -0.0775.

Sample 4 — technique: RNA Bind-n-Seq; molecule type: RNA; medium: in vitro; tested at: not given; reference: input RNA pool; direction: higher = stronger binding
Target: RING finger protein unkempt homolog, zinc fingers 1-6, GST-SBP tag (UNK, Homo sapiens, UniProt Q9C0B0, residues 30-357)
Notes: RNA with constant flanks, human-mouse chimeric sites, ends assumed
Target sequence (chain): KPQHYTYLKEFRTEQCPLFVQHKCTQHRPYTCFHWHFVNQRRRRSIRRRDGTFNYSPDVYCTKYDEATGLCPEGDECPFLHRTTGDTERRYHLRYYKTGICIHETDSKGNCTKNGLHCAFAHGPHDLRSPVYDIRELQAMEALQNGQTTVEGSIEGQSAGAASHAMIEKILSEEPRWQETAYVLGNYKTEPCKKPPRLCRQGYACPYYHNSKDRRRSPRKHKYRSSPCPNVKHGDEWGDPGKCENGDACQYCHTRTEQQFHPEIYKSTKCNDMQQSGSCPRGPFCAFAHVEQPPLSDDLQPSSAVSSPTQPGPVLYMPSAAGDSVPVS
The bound/input enrichment of `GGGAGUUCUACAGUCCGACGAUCUUGGAAGGACCAGAGCCUAAUCAACUGAAACCAUUAGUUAUACAGGCUAUGCCCACCCUAAUAGAACUAAUGAAAGACCCCAGUGUAGUUGUUCGAGACACAACAGCAUGGACUGUAGGCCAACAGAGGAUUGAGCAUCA` is reported as 0.874 ratio.
For `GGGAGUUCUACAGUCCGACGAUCGCUCUUGGGAAUGUAAUCAGCGCCUUGGGGGACAAGAGCAAGAGAGCCACACAUGUCCCUUACAGAGACUCUAAGCUGACAAGACUCUUGCAGGAUUCCCUCGGGGGUAACAGCCAAACCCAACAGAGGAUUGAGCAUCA`, the bound/input enrichment was 0.097 ratio.
For `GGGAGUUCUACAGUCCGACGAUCACAGUUAUAUUGUUGAGGUUUGUAUUUAUAUAUUCUUGUAGUGUCUGCUUGCCUGUGACUUCUGGUAAAAUAAAAUAUUAAAAUUACAAUAUUUUAGCAUGGUAUUUAACAUUUUCUAAACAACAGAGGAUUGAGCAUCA`, the bound/input enrichment was 2.55 ratio.
For `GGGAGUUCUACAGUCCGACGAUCGUCAACAGCUGCCUCAAUCCCAUUCUCUACGCCUUCCUGGAUGAGAACUUCAAGGCCUGCUUCCGCAAGUUCUGCUGUGCAUCUGCCCUGCGCCGGGACGUGCAGGUUUCUGAUCGUGUGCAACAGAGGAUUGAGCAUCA`, the bound/input enrichment was 0.337 ratio.
`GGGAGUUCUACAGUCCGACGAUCUCUUAACGUCCAUUUAAAACUUAUUUUUAUAGCUAGAUAAAUAUUGUUAGUCUUAGUCAAUAGCUCACAUUUUUUGAGAAGCAUGCCCUCCCUGUCCAUUUGUCUUAUAACAUGACCCAGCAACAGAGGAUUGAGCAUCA` has a bound/input enrichment of 166 ratio.
`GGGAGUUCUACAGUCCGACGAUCUUUCUACUGCAGCAGACGAUGCUAAGAAUUAAGGAUCCUAAGAAGUCCCUGGAUUUUUAUACGAGGGUUCUUGGACUGACCCUCCUGCAGAAGCUUGACUUCCCUGCUAUGAAGUUCUCGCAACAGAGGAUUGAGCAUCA` has a bound/input enrichment of 0.373 ratio.
`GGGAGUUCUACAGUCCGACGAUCCUUAUGGCUGCAGAAACAGGAAGUGGAAAAACUGGUGCUUUUAGUAUUCCCGUUAUCCAGAUAGUGUAUGAAACUCUGAAAGACCAACAGGAAGGAAAGAAAGGGAAAACAACUAUUAAACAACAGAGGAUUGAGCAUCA` gave a bound/input enrichment of 0.722 ratio.
`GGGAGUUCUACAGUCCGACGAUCUCUUUGUGUAACUUAUCUGUAAAAGGUGUUUCUCCCUUACUGUCAAAAAAUAUGCAUGUAUAGUAAUUAGGACUUCAUUCCUCCAUGUUUUCUUCCCUUAUCUUACUGUCAUUGUCCUUACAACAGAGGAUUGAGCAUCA` gave a bound/input enrichment of 0.735 ratio.

A few entries again (sample 2):
The E-score of `AAATACAT` is reported as 0.301.
For `AGAAATAA`, the E-score was 0.26.
The E-score of `AAGATAAA` is reported as 0.29.
`TGTATAAA` has an E-score of 0.257.
The E-score of `AATACCTA` is reported as 0.278.
